Experimental data pooled from the literature.
Compare with care: the assays were run in different laboratories. Numbers after ± are the reported error.

Compound	test	system	conditions	how to read	measurement	result
COc1ncc(-c2nc3c(n2C(C)C)[C@H](c2ccc(Cl)cc2)N(c2cc(Cl)cn(C)c2=O)C3=O)c(OC)n1	LC-MS/MS	human, plasma	oral, 400 mg, cycle 2 day 1, high-dose arm	–	Cmax	3200 ng/mL
NC1(C(=O)N[C@@H](CCO)c2ccc(Cl)cc2)CCN(c2nc[nH]c3nccc2-3)CC1	–	metastatic CRPC patients	320 mg b.i.d., any grade, treatment-related, together with: enzalutamide 160 mg daily	–	incidence of Leukopenia	0%
Cc1c(NC(=O)C2CCCN2S(=O)(=O)c2ccccc2)c(=O)n(-c2ccccc2)n1C (stereo not drawn)	–	octanol/buffer	pH 11, known kinase inactives set	–	logP	0.98
CN(C(=O)n1cnc(-c2cccnc2)c1)[C@H]1CC[C@H](O)CC1	–	rat, hippocampus	oral, 10 mg/kg daily for 5 days, 72 h	–	tissue concentration	14.7 ± 1.1 ng/g
COc1cc(Nc2ncc3c(n2)-c2ccc(Cl)cc2C(c2c(F)cccc2OC)=NC3)ccc1C(=O)O	measured: Hyperkalemia, all grades	cancer patients, phase 1/2	oral, dose not given, together with: pembrolizumab	–	patients with adverse event	13%
CNCc1ccc(-c2[nH]c3cc(F)cc4c3c2CCNC4=O)cc1	–	patients	oral, 600 mg twice daily, grade 5	–	decreased appetite incidence	0%
Cc1nc(C(=O)N2CCC[C@H]2C(=O)N[C@@H](COC(C)(C)C)C(=O)N[C@@H](CC(C)C)C(=O)NC(C)(C)C(=O)N[C@@H](CC(C)C)C(=O)N[C@@H](CC(C)C)C(=O)NC(C)(C)C(=O)NC(C)(C)C(=O)NCCC(=O)NC2(CN(C)C)CCC2)co1	circular dichroism	phosphate buffer	pH 7.4, 20 °C	–	alpha-helix content	38.7%
COc1ccc2c(=O)n(C)c(-c3ccccc3)nc2c1	–	male Sprague-Dawley rat, testis	oral, 30 mg/kg, 2 h	–	tissue concentration	32.2 ng/g
CC1(CNC(=O)c2ccc(C#CC#Cc3ccccc3)cc2)NC(=O)NC1=O (stereo not drawn)	–	octanol/buffer	pH 11	–	logP	2.4
COC(=O)c1ccccc1C1=c2cc3c4c(c2Oc2c1ccc1cccc(O)c21)CCC[N+]=4CCC3.[Cl-]	–	12.5 mM aqueous NaOH	pH 12.1, 10% DMSO	–	emission maximum	770 nm
Cc1cc(NC2CCN(C(=O)OC3CCN(C(=O)/C=C/CN(C)C)C3)CC2)n2ncc(C(C)C)c2n1 (stereo not drawn)	Phase I dose escalation CTCAE v4.0, measured: peripheral oedema	patients with advanced solid tumours	dose not given, QD dosing grade 3 or higher	–	patients with adverse event	0%
CC(C)(C(=O)N1CCOc2c(C#N)cncc2C1)C(F)F	–	human, both sexes	oral, 40 mg single dose	–	subjects with investigations TEAE	0%
N#Cc1ccc2c(c1)[C@H]1CCCN(C(=O)c3ccc4[nH]cnc4c3)[C@H]1C2	–	human	10 mg, end of trial	–	median ACTH level	4.2 pmol/L
CN(CCC#N)C1CCN(C(=O)Cn2cc(NC(=O)c3cnn4cccnc34)c(-c3cc(Cl)ccc3OC(F)F)n2)CC1	gamma scintigraphy	human	inhalation, 1 mg single dose	relative to: emitted dose	stomach deposition	28.6%
CN1CCN(c2cccc3c2CCN(C(=O)/C=C/c2c(-n4cnnn4)ccc(Cl)c2F)[C@@H]3C(=O)Nc2ccc(C(=O)O)cc2)C(=O)C1	–	healthy human subjects	intravenous infusion, 1.5 mg/h, 2 h	–	subjects with any adverse event	33.3%
CCc1cc(C(=O)NC)c2nccc(N3CCc4c(cc(Cn5ccnc5)cc4-c4cn(C)nc4C(F)(F)F)C3=O)c2c1	–	Sprague Dawley rat	oral, 100 mg/kg twice daily, day 3, 7-day toxicology study	–	body weight	226 ± 3.9 g
CC(C)C[C@H](NC(=O)[C@@H](Cc1c[nH]c2ccccc12)NC(=O)[C@H](Cc1ccc(O)cc1)NC(=O)[C@H](CO)NC(=O)[C@H](Cc1c[nH]c2ccccc12)NC(=O)[C@H](Cc1c[nH]cn1)NC(=O)[C@@H]1CCC(=O)N1)C(=O)N[C@@H](CCCNC(=N)N)C(=O)N1CCC[C@H]1C(=O)NCC(N)=O	–	Chinese CPP children	intramuscular, 22.5 mg, 12 months, day 1, month 6	–	patients, drug-related Obesity TEAEs	3%
COc1cc(-c2nnc(SCC(N)=O)n2C)cc(OC)c1OC	–	octanol/buffer	pH 11, known kinase inactives set	–	logP	0.25
[O]=[Co].[O]=[Co][O][Co]=[O]	–	Crl:CD(SD) rat male, blood	oral, 734 mg Co/kg/day, 90 days	–	haematocrit	60%
O=S(=O)(O)Oc1cc([C@H]2Oc3cc(O)cc(O)c3C[C@H]2O)ccc1O	–	human, cerebrospinal fluid	concentration not given, median	–	CSF concentration	11.9 nM
CCN1/C(=C/C(C)=O)Sc2ccc(F)cc21	–	cynomolgus monkey	oral, 100 mg/kg, 24 h post-dose	–	heart rate	109 ± 14 beats/min

Repeated from above:
Compound	test	system	conditions	how to read	measurement	result
COC(=O)c1ccccc1C1=c2cc3c4c(c2Oc2c1ccc1cccc(O)c21)CCC[N+]=4CCC3.[Cl-]	–	12.5 mM aqueous NaOH	pH 12.1, 10% DMSO	–	emission maximum	770 nm
